Published values of several laboratories.
Each line is one published result; not all experiments were run side by side. ± gives the spread as reported.

CCCCOC(=O)N1CCN(C(=O)[C@H](CP(=O)(O)O)NC(=O)c2cc(N3CC[C@H](OC)C3)nc(-c3ccccc3)n2)CC1  change from baseline (refers to: urate; human, serum; 8 mg, 24 h post-dose): -5.8 ± 26 µmol/L
Cn1cc(-c2cn3nccc3c(-c3cnn([C@]4(CC#N)C[C@@H](C#N)C4)c3)n2)cn1  dose-normalised AUC(0-t) (healthy humans fasted, plasma; oral, 3 mg single dose, geometric mean): 13.4 ng·h/mL/mg
CC(C)NCCCC[C@@H]1NC(=O)[C@H](Cc2ccc(O)cc2)NC(=O)[C@H](Cc2ccccc2)NC(=O)CC[C@H](C(=O)N[C@@H](CCCCNC(C)C)C(=O)N[C@@H](CCCCNC(=O)[C@H](CCC(=O)O)NC(=O)[C@H](CCC(=O)O)NC(=O)[C@H](CCC(=O)O)NC(=O)CN2CCN(CC(=O)O)CCN(CC(=O)O)CCN(CC(=O)O)CC2)C(N)=O)NC(=O)CNC(=O)[C@H](Cc2ccc3ccccc3c2)NC(=O)[C@@H](CCCNC(=N)N)NC1=O [gallium-68 labelled]  tissue uptake (mouse with Daudi xenograft, stomach; intravenous, 2 h): 0.07 %ID/g
CN1CC(Oc2cnc(C#N)cc2-c2ccn3nc(NC(=O)C4CC4)cc3c2)C1  trough plasma concentration (Rag2-/- mouse, female, anti-CD40 colitis, plasma; oral, 80 mg/kg twice daily, 24 h): 1560 nM
Cn1c(=O)[nH]c2ncn(C)c2c1=O  CSF concentration (human, cerebrospinal fluid; dose not given, mean): not detected
O=C(O)CCC(=O)O.[2H]C([2H])([2H])Oc1cc(C)c2[nH]ccc2c1CN1CC[C@@H](C2CC2)C[C@H]1c1ccc(C(=O)O)cc1  TEAE proteinuria (healthy Chinese subjects; 600 mg, single ascending dose): 0%
Cc1nsc(-c2nnc3n2CCN(C(=O)c2ccc(F)cc2)[C@@H]3C)n1  Vd/F (human, plasma; oral): 160 L
CC(C)c1nc(N(C)S(C)(=O)=O)nc(-c2ccc(F)cc2)c1/C=C/[C@@H](O)C[C@@H](O)CC(=O)O  elimination rate constant (rat, Wistar albino, plasma; oral, 20 mg/kg): 1.94e-05 s⁻¹
CC(C)n1c(Nc2cccnc2)nc2cnc(Nc3ccc(N4CCN(C)CC4)cc3)nc21  subjects with adverse event (refers to: nodal rhythm; healthy male subjects; oral, 150 mg, study, with: rifampin): 7.1%
COc1ncc(-c2nc3c(n2C(C)C)[C@H](c2ccc(Cl)cc2)N(c2cc(Cl)cn(C)c2=O)C3=O)c(OC)n1  median Tmax (human patients, plasma; oral, 400 mg, high-dose arm, cycle 1 day 1): 3 h
CCN1/C(=C/C(C)=O)Sc2ccc(F)cc21  heart rate (cynomolgus monkey; oral, 100 mg/kg, 24 h post-dose): 109 ± 14 beats/min
CNC(=O)n1ccc2cc(Oc3ccnc(NC(=O)c4ccc(C5CCN(CCO)CC5)cc4)c3)c(OCCOC)cc21  AUC(0-72 h) (healthy human, plasma; oral, 35 mg, high-fat meal): 92.8 ng·h/mL
CC(C)C[C@H](NC(=O)[C@@H](Cc1c[nH]c2ccccc12)NC(=O)[C@H](Cc1ccc(O)cc1)NC(=O)[C@H](CO)NC(=O)[C@H](Cc1c[nH]c2ccccc12)NC(=O)[C@H](Cc1c[nH]cn1)NC(=O)[C@@H]1CCC(=O)N1)C(=O)N[C@@H](CCCNC(=N)N)C(=O)N1CCC[C@H]1C(=O)NCC(N)=O  patients, drug-related Obesity TEAEs (Chinese CPP children; intramuscular, 22.5 mg, 12 months, day 1, month 6): 3%
CCN(CC)CCNC(=O)c1c(C)[nH]c(/C=C2\C(=O)Nc3ccc(F)cc32)c1C  serum concentration (LC-MS; human, serum; 25 mg, 24 h): 57.3 ng/mL
O=C(CSc1nnc(-c2ccc([N+](=O)[O-])cc2)n1-c1ccccc1)N1CCOCC1  logP (octanol/buffer; pH 11, known kinase inactives set): 1.72
Cn1ncnc1[C@H]1c2n[nH]c(=O)c3cc(F)cc(c23)N[C@@H]1c1ccc(F)cc1  accumulation half-life (human patients, plasma; oral, 600 µg/m2, dose level DL3, median, with: temozolomide 20 mg/m2 daily days 2-6): 46.8 h
C[C@@H](N)C1CCN(S(=O)(=O)c2cccc3cnccc23)CC1  participants with nausea (healthy volunteers; 150 mg, fasted): 0%
COc1ccc(C(O)COc2ccc(-c3csc(-c4ccc(OCC(O)c5ccc(OC)c(OC)c5)cc4)n3)cc2)cc1OC (centres unmarked)  tlast (C57BL/6J mice, plasma; oral, 30 mg/kg): 48 h
COc1cc(Nc2ncc3c(n2)-c2ccc(Cl)cc2C(c2c(F)cccc2OC)=NC3)ccc1C(=O)O  patients with adverse event (refers to: Cough, grade 1; cancer patients, phase 1/2; oral, dose not given, with: pembrolizumab): 21%
NC1(C(=O)N[C@@H](CCO)c2ccc(Cl)cc2)CCN(c2nc[nH]c3nccc2-3)CC1  incidence of Leukopenia (metastatic CRPC patients; 320 mg b.i.d., grade 3 to 4, treatment-related, with: enzalutamide 160 mg daily): 0%
CC(C)(C(=O)N1CCOc2c(C#N)cncc2C1)C(F)F  subjects with adverse event (refers to: upper abdominal pain; human; oral, 15 mg twice daily, 14 days, multiple ascending dose): 0%
N=C(N)NC(=O)c1ccc(Cl)c(S(N)(=O)=O)c1  logP (octanol/buffer; pH 11, urokinase ligand set): -1.59
O=C(Nc1nc2cccc(-c3ccc(CN4CCS(=O)(=O)CC4)cc3)n2n1)C1CC1  treatment-emergent adverse events (refers to: investigations; human rheumatoid arthritis patients; oral, 30 mg once daily, 4 weeks, regardless of relatedness): 11.8%
Cc1cc(NC(=O)c2cccc(NC(=O)/C=C/CN(C)C)c2)ccc1Nc1nccc(-c2cccnc2)n1  compound remaining (Wistar rat, male, plasma; 1 µM, 120 min): 79.4%
COc1ccc([C@@H](O)c2cc(-c3ncnc4cc(N5CCOCC5)ccc34)c(F)cc2Cl)nn1  decreased appetite TEAE incidence (locally advanced rectal cancer patients; 50 mg, with: capecitabine and radiotherapy): 0%
CNC(=O)c1ccc(-c2cnc3ncc(Cc4ccc5ncccc5c4)n3n2)cc1F  Diarrhoea dose reduction/interruption (Japanese patients; oral, 400 mg, grade 3/4): 1%
CC[C@@](N)(c1cnc(C(F)(F)F)c(Cl)c1)c1c2ncn(C3CC3)c(=O)c2nn1C  CLint,u (rat Sprague-Dawley male, blood; intravenous, 1 mg/kg): 1.9 mL/min/kg
CO[C@H]1/C=C/O[C@@]2(C)Oc3c(C)c(O)c4c(O)c(c(/C=N/N5CCN(C)CC5)c(O)c4c3C2=O)NC(=O)/C(C)=C\C=C\[C@H](C)[C@H](O)[C@@H](C)[C@@H](O)[C@@H](C)[C@H](OC(C)=O)[C@@H]1C  adverse event incidence (refers to: ventricular extrasystoles; healthy human participants; oral, 600 mg, with: gepotidacin 1500 mg): 0%
CNC(=O)c1ccc(-c2cnc3ncc(Cc4ccc5ncccc5c4)n3n2)cc1F  unbound Cmax (human severe hepatic impairment; oral, 200 mg single dose, adjusted geometric mean): 74.3 ng/mL
CC(=O)Nc1cccc(-c2nnc(SCC(=O)Nc3ccc(C(C)=O)cc3)n2C)c1  logP (octanol/buffer; pH 11, known kinase inactives set): 1.68
CCc1cc(C(=O)NC)c2nccc(N3CCc4c(cc(Cn5ccnc5)cc4-c4cn(C)nc4C(F)(F)F)C3=O)c2c1  change in HCT (Sprague Dawley rat; oral, 100 mg/kg once daily, 7 days; reference: vehicle): -0.22%
CNC(=O)c1ccc(-c2cnc3ncc(Cc4ccc5ncccc5c4)n3n2)cc1F  ALT increased incidence (gastric cancer patients; oral, 600 mg twice daily, all grades RP2D expansion): 11%
CCO[C@H]1CCN(Cc2c(OC)cc(C)c3[nH]ccc23)[C@H](c2ccc(C(=O)O)cc2)C1  unbound AUCinf (human moderate hepatic impairment, plasma; oral, 200 mg single dose, median): 5060 ng·h/mL
O=C(NO)[C@H]1CSC(c2ccc(OC(F)(F)F)c(Cl)c2)=N1  logP (octanol/buffer; pH 11): 1.24
OC[C@H]1OC(O)[C@H](O)[C@@H](O)[C@@H]1O (some centres unmarked)  osmolality (aqueous solution; 20 mM, with: glucosamine): 18 mOsmol/kg
N#Cc1ccc2c(c1)[C@H]1CCCN(C(=O)c3ccc4[nH]cnc4c3)[C@H]1C2  maximum ACTH level (human; 240 mg, day 15): 18.7 pmol/L
Cc1ccc([C@@H]2O[C@H](CO)[C@@H](O)[C@H](O)[C@H]2O)cc1Cc1ccc(-c2ccc(F)cc2)s1  urinary phosphate excretion change (refers to: inorganic phosphorus; Japanese type 2 diabetes patients; 100 mg, day 16, 24 h urine collection; reference: baseline): -58.2 mg
C=CC(=O)NC1CCN(c2ncc3ncnc(Nc4ccc(Oc5ccc6c(c5)ncn6C)c(C)c4)c3n2)CC1  absolute bioavailability (AUC ratio) (healthy male volunteers, plasma; oral tablet, 60 mg, dose-normalised AUC(0-tz), adjusted geometric mean; reference: oral over intravenous microtracer): 77%
CN(C)C(=O)c1cc2cnc(Nc3ccc(-c4ccc5c(=O)cc(N6CCOCC6)oc5c4)cc3)nc2n1C1CCCC1  concentration (BALB/c mouse, lung; oral, 20 mg/kg, 2 h): 598 ± 412 ng/g
Cc1cc(NC2CCN(C(=O)OC3CCN(C(=O)/C=C/CN(C)C)C3)CC2)n2ncc(C(C)C)c2n1 (centres unmarked)  patients with Hyponatremia (patients with advanced solid tumours; dose not given, QD arm, any grade): 2%
O=S(=O)(NCc1ccccn1)c1ccc(Cl)c(Cl)c1Cl  logP (octanol/buffer; pH 11): 2.19
O=C(O)CCc1cccc(O)c1O  CSF concentration (human, cerebrospinal fluid; concentration not given, median): 15.8 nM
O=c1c2ccccc2oc2ccccc12  solubility (tricaprin-tricaprylin mixture; 45 °C, tricaprin fraction 0.36): 0.0608 mole fraction
CCOc1c([C@H](C)n2nc(C)c3c(N)ncnc32)cc(Cl)c(F)c1[C@@H]1CNC(=O)C1  Cmax geometric mean (patients, monotherapy; oral, 15 mg once daily, cycle 1 day 1): 766 nM
CCc1nc(C(N)=O)c(Nc2ccc(N3CCC(N4CCN(C)CC4)CC3)c(OC)c2)nc1NC1CCOCC1  Cmax (Japanese patients, plasma; oral, 40 mg, cycle 1 day 28, multiple doses, mean): 123 ng/mL
CC(=O)c1ccc([C@H]2C[C@@]3(C)[C@@H](CC[C@@]3(O)C(F)(F)C(F)(F)F)[C@@H]3CCC4=CC(=O)CCC4=C32)cc1  serum concentration (human, serum pool; oral, 200 mg, day 1, 48 h): not detected
CC(C)c1nc(N(C)S(C)(=O)=O)nc(-c2ccc(F)cc2)c1/C=C/[C@@H](O)C[C@@H](O)CC(=O)O  increase in AUCinf (healthy human volunteers, plasma; oral, dose not given, BCRP probe substrate, with: multiple-dose momelotinib; reference: compound alone): 170%
Cc1c(-c2ccc(N3CCc4cccc(C(=O)Nc5nc6ccccc6s5)c4C3)nc2C(=O)O)cnn1CC12CC3(C)CC(C)(C1)CC(OCCNCC[C@H](O)CO)(C3)C2  plasma concentration (anaesthetized male beagle dog; iv infusion, 0.01 mg/kg/min, 15 min): < 2 ng/mL
C[C@H](O)c1cc(C(=O)N[C@@H](C)Cn2ccc(-c3ccc(C#N)c(Cl)c3)n2)n[nH]1  Vd/F (human, fasted; oral, 300 mg 14C-darolutamide solution, geometric mean): 60.6 L
CC1(C)C(/C=C/C=C/C=C/C=C2\N(CCCCS(=O)(=O)O)c3ccc4ccccc4c3C2(C)C)=[N+](CCCCS(=O)(=O)[O-])c2ccc3ccccc3c21  emission maximum (toluene; 20 °C): 824 nm
COc1ccccc1NC(=O)CSc1nncn1C  logP (octanol/buffer; pH 11, known kinase inactives set): 0.79
COc1ccc2c(c1)CN(C(=O)CCN1CCC(Cc3ccccc3)CC1)CC[S@@+]2[O-]  systolic blood pressure (telemetry; conscious male beagle dogs; intravenous, 4 mg/kg, 1 h): 127 ± 11 mmHg
NC[C@H](NC(=O)c1ccc(-c2ccc(Br)cc2)cc1)C(=O)NO  logP (octanol/buffer; pH 11): 0.95
CC(C)c1nc(N(C)S(C)(=O)=O)nc(-c2ccc(F)cc2)c1/C=C/[C@@H](O)C[C@@H](O)CC(=O)O  passive uptake clearance (cynomolgus monkey hepatocytes; 4 °C, 10% monkey serum): 0.6 µL/min/10⁶ cells
CCN1CCN(Cc2ccc(Nc3ncc(F)c(-c4cc(F)c5nc6n(c5c4)[C@H](C)CCC6)n3)nc2)CC1  Vd/F (human, plasma; 500 mg single dose, mean): 1970 L
C=CC(=O)Nc1cc(Nc2nccc(-c3cn(C)c4ccccc34)n2)c(OC)cc1N(C)CCN(C)C  recovery (human plasma; 5 h, storage stability, medium QC sample): 90.3%

For quick reference, copied from above:
O=C(NO)[C@H]1CSC(c2ccc(OC(F)(F)F)c(Cl)c2)=N1  logP (octanol/buffer; pH 11): 1.24
Cc1c(-c2ccc(N3CCc4cccc(C(=O)Nc5nc6ccccc6s5)c4C3)nc2C(=O)O)cnn1CC12CC3(C)CC(C)(C1)CC(OCCNCC[C@H](O)CO)(C3)C2  plasma concentration (anaesthetized male beagle dog; iv infusion, 0.01 mg/kg/min, 15 min): < 2 ng/mL
NC[C@H](NC(=O)c1ccc(-c2ccc(Br)cc2)cc1)C(=O)NO  logP (octanol/buffer; pH 11): 0.95
Cn1cc(-c2cn3nccc3c(-c3cnn([C@]4(CC#N)C[C@@H](C#N)C4)c3)n2)cn1  dose-normalised AUC(0-t) (healthy humans fasted, plasma; oral, 3 mg single dose, geometric mean): 13.4 ng·h/mL/mg
CC(C)c1nc(N(C)S(C)(=O)=O)nc(-c2ccc(F)cc2)c1/C=C/[C@@H](O)C[C@@H](O)CC(=O)O  increase in AUCinf (healthy human volunteers, plasma; oral, dose not given, BCRP probe substrate, with: multiple-dose momelotinib; reference: compound alone): 170%
O=C(Nc1nc2cccc(-c3ccc(CN4CCS(=O)(=O)CC4)cc3)n2n1)C1CC1  treatment-emergent adverse events (refers to: investigations; human rheumatoid arthritis patients; oral, 30 mg once daily, 4 weeks, regardless of relatedness): 11.8%
